Experimental data collected from several papers.
Numbered parts are unrelated; each lists some results of a single study.

Series 1
Target: RING finger protein unkempt homolog, zinc fingers 1-6, SBP tag (UNK, Homo sapiens, UniProt Q9C0B0, residues 30-357)
Chain of UniProt Q9C0B0 (30-357, looked up): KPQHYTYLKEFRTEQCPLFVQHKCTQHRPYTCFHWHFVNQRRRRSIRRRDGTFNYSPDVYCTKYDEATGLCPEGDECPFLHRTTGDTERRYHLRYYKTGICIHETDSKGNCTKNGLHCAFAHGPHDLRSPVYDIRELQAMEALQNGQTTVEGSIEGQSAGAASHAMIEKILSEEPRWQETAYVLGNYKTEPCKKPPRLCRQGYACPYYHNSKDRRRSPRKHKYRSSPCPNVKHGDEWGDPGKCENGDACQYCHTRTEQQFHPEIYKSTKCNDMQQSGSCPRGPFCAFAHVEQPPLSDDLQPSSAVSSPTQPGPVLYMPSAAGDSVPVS
Method: RNA Bind-n-Seq
Molecule type: RNA
Medium: in vitro
Tested at: 100 nM
Setting: RNA with constant flanks, vertebrate orthologous sites, ends assumed
Baseline: input RNA pool
Direction: higher = stronger binding
| Sequence | bound/input enrichment |
| --- | --- |
| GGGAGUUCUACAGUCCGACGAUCCUUUUAAUCGACUAUGUCUGUAAAUGUAUAUUGAGAGAAUUUAAGUAUUUAUAAACAGAGUGAUUUAUUUAAGGAAAAGCUUAUCCCUCUUUCAUAUGGUGGUCUGUGUUAAUUCCAUUUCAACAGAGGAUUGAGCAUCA | 0.645 ratio |
| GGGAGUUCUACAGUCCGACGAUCGUGGGUUGUACCUCCUGAACUUCUAGCUUUCAAGUUGUGGCUUUUUUUUUUUCUUUUCUUUAGAAUUUUUCCCUGUUUCCCACCUUCUCUUCCCCUGUUCCCAAGGUCUGACUCAUGGAUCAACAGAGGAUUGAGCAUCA | 3.16 ratio |
| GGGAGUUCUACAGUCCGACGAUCAGCAACUCAAGGAUUCAGGACAAGUUUCACAAAUAUACCAAGUAGAUAUGGAACCAACAAUAGAAUUGGACAGCCAAGACCGUGAUGUACUCCAGUGUAACUUAUUUUUAUGAGGAAUUUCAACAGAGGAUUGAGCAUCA | 0.368 ratio |
| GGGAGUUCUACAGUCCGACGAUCGCCCCGGCUCCCAUGAGAGGGAGUGGGGGGAGCUCAGGAUGACCCUCAACUGUUCCAAUCCAGUAUUUUUUUUUCUUUUUUAAAAUUACUGUAUUUAUUAUGACGACGGUGACUCCCCGGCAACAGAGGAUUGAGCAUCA | 0.497 ratio |
| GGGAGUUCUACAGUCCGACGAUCAAAUGAGCUGCUAGGGCAGUAAGAUGGGUUCCCUUUCACCCCUCAAGGAAAAAACCCGAACGGAUUCCUUAACCAUCUAAGUAGACUACCAUAGGUUAGCUUUUCUGGGUAUUUUUGUUACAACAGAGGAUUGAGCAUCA | 0.289 ratio |
| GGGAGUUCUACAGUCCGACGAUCCAGCUUAGCGAACACAGUUUUGGAGAAAUAAUAAUAAUAAUAUUUAAAAAAUAAAGAGCCUGAUUGGUAUCUUUUUGUCUAACUGUUUUUCAAAGAGAAAGUUUAAAAGAAAAAAAAAGACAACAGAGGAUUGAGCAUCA | 0.475 ratio |
| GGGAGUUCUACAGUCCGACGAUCUUGGUUUGGGGUAGAGGGGAGGGAAGGGCAGGAUGGUAUGGAAUCUCUAGCAUAUAUGGGUAGUUAGUUAGGGUACACAGUUAGUUCUAAGUGAGCCUUUGUUAAAAUUUUUUGGGAGGUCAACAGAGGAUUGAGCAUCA | 2.26 ratio |
| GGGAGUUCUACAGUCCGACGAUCAGAUUGGGACCUUGGAGCAGAAUGAGAAGUUUGCAAAAGUAAAGCAAGCUUGUAAAAUUAUACCAUAUGCAGCUGCACAGUGGUACUUACCACUAGCAACUGUAUUAAAGCAUUUAUGAACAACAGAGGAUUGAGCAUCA | 0.555 ratio |

Series 2
Target: Replicase polyprotein 1ab, nsp13 helicase (rep, Severe acute respiratory syndrome coronavirus 2, UniProt P0DTD1)
Action: inhibitor
Tested at: 20 µM
| SMILES | inhibition |
| --- | --- |
| CC(C)(CO)[C@@H](O)C(=O)NCCC(=O)O | 3.77% |
| O=C1NC(=O)C(=Cc2ccc(-c3ccc(F)cc3)o2)S1 (stereo in doubt) | 7.49% |
| CN1CCC(COc2cnc(-c3cccc(Cn4nc(-c5cccc(C#N)c5)ccc4=O)c3)nc2)CC1 | 6.23% |
| CCCOC(=O)c1ccccc1 | 3.98% |
| CCCOc1ccc(C(=O)OCCN(CC)CC)cc1N | 4.09% |
| Cc1cccc(C)c1NC1=NCCCS1 | 1.82% |
| CC(CNC(=O)c1cccnc1)NC(=O)c1cccnc1 (stereo not shown) | 8.57% |
| O=C(/C=C/c1ccc2ccccc2n1)c1ccncc1 | 91.3% |
| c1ccc2c(CCNc3ccc(Nc4ccncc4)cc3)c[nH]c2c1 | 8.78% |
| Oc1nc(-c2ccc(C(F)(F)F)cc2)nc2c1CSCC2 | 3.48% |
| Clc1ccc(-c2nc3sccn3c2/C=N/OCc2ccc(Cl)c(Cl)c2)cc1 | 1.34% |
| Cc1ccc2c(c1)[C@]13CCCC[C@@H]1[C@H](C2)N(C)CC3 | -3.29% |
| O=C(O[C@H]1C[C@H]2CC[C@@H](C1)[N+]21CCCC1)C(O)(c1ccccc1)c1ccccc1 | -2.61% |
| N#Cc1ccc(Oc2ccc3c(c2)COB3O)cc1 | 1.08% |
| Cc1cnc(Nc2ccc(N3CCN(C)CC3)cc2)nc1Nc1cccc(S(=O)(=O)NC(C)(C)C)c1 | 27.8% |
| Fc1ccc2nc(CCC#Cc3ccccn3)cn2c1 | -0.81% |
| O=C(NO)C1(CS(=O)(=O)c2ccc(Oc3ccc(Cl)cc3)cc2)CCOCC1 | 0.07% |
| C=C1CC[C@@H]2[C@](C)(CO)[C@H](O)CC[C@@]2(C)[C@@H]1C/C=C1/C(=O)OC[C@H]1O | 3.56% |
| Ic1cc(-c2ccccc2)ncn1 | 6.34% |
| O=C(CCCN1CC=C(n2c(=O)[nH]c3ccccc32)CC1)c1ccc(F)cc1 | -30.7% |
| Cc1nc(-c2cn3c(n2)-c2ccc(-c4cnn(C(C)(C)C(N)=O)c4)cc2OCC3)n(C(C)C)n1 | 3.97% |
| CN1[C@H]2C[C@H](OC(=O)[C@H](CO)c3ccccc3)C[C@@H]1[C@@H](O)C2 (racemic) | -1.48% |
| CCOC(=O)[C@]12CC1/C(=N\O)c1ccccc1O2 (mixture of isomers) | 8.37% |
| CCCCCCCCCCCCCCCC(=O)O[C@@H]1[C@@H](O)[C@@H](O)[C@@H]([C@H](NC(=O)[C@@H]2C[C@@H](CCC)CN2C)[C@H](C)Cl)O[C@@H]1SC | 1.78% |
| CC/C(=C(\c1ccc(O)cc1)c1ccc(OCCN(C)C)cc1)c1ccccc1 | 11% |

Series 3
Organism: Vesicular stomatitis virus
Read-out: pseudovirus infection
Method: FDA-approved drug library screen
Tested at: concentration not given
Setting: SARS-CoV-2 spike pseudotype
Baseline: vehicle
| SMILES | GFP-positive cells [%] |
| --- | --- |
| CC(C)[N+]1(C)[C@@H]2CC[C@H]1C[C@@H](OC(=O)C(CO)c1ccccc1)C2.O.[Br-] (stereo partly shown) | 94.4 |
| CN(C)CCOC(c1ccc(Cl)cc1)c1ccccn1.O=C(O)/C=C\C(=O)O (stereo not shown) | 79 |
| C[S+](C)[O-] | 87.6 |
| Cc1nc2n(c(=O)c1CCN1CCC(c3noc4cc(F)ccc34)CC1)CCCC2 | 108 |

Series 4
Target: Ras GTPase-activating protein-binding protein 1, RRM domain (G3BP1, Homo sapiens, UniProt Q13283)
Chain of UniProt Q13283 (whole entry, looked up): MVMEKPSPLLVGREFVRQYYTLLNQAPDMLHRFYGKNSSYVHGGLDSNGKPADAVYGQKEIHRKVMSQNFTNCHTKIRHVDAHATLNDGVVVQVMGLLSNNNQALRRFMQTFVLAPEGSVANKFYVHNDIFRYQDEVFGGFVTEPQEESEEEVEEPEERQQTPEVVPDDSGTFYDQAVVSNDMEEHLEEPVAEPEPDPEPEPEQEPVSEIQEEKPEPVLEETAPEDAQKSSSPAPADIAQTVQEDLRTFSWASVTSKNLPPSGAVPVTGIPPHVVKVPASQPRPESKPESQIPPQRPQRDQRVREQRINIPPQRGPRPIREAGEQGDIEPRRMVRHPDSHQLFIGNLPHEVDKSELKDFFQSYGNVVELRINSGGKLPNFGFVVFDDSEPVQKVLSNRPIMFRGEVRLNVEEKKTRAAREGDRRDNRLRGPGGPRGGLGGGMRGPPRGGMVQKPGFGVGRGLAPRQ
Method: RNA Bind-n-Seq
Molecule type: RNA
Medium: in vitro
Tested at: 1 µM
Setting: whole 134-nt RNA, ends assumed
Added: 150 mM KCl
Baseline: input library
Direction: higher = stronger binding
| Sequence | log2 enrichment |
| --- | --- |
| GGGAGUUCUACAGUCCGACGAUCCUCAAGUCCUGUGCUACACAUCGUAUGUACCGAAUCGGGGCGGGGCGGGGCGGGAAAGUAUUAUGUUACGCCGUUCGGAUCUGCACUUCCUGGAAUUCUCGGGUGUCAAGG | 0.678 |
| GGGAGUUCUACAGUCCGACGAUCCUGUGCUACACAUCGUAUGUACCGAAUCGGGAAAAAAAGGGGAAAAAAAGGGGAAAAAAAGGAAAGUAUUAUGUUACGCCGUUCGGAUCUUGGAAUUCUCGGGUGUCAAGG | 0.137 |
| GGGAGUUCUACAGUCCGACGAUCAGUCCUGUGCUACACAUCGUAUGUACCGAAUCAAAUUUAAAUUUAAAUUUUUUUAAAAAAGUAUUAUGUUACGCCGUUCGGAUCUGCACUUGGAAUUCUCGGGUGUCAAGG | -0.812 |
| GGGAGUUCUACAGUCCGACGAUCUCAAGUCCUGUGCUACACAUCGUAUGUACCGAAUCGGGAGGGUUUGGGUUUGGGAAAGUAUUAUGUUACGCCGUUCGGAUCUGCACUUCCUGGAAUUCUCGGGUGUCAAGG | 0.714 |
| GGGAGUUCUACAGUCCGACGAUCCCUCAAGUCCUGUGCUACACAUCGUAUGUACCGAAUCGGGCGGCGGGGCGGGAAAGUAUUAUGUUACGCCGUUCGGAUCUGCACUUCCAGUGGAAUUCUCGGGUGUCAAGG | 0.159 |
| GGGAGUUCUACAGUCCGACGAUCAGUCCUGUGCUACACAUCGUAUGUACCGAAUCGGGUUUGGGUUUUUUUGGGUUUGGGAAAGUAUUAUGUUACGCCGUUCGGAUCUGCACUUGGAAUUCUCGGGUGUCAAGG | 0.375 |
| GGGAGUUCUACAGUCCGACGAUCCCUCAAGUCCUGUGCUACACAUCGUAUGUACCGAAUCGGGGCGGGCGGGCGGGAAAGUAUUAUGUUACGCCGUUCGGAUCUGCACUUCCAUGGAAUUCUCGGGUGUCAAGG | 1.06 |
| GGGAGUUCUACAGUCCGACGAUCCCUCAAGUCCUGUGCUACACAUCGUAUGUACCGAAUCGGGUGGGUGGGUGGGGAAAGUAUUAUGUUACGCCGUUCGGAUCUGCACUUCCAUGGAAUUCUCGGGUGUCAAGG | 0.934 |

Series 5
Target: Replicase polyprotein 1ab, main protease (rep, Severe acute respiratory syndrome coronavirus 2, UniProt P0DTD1)
Read-out: enzyme activity
Action: inhibitor
Tested at: 20 µM
Setting: primary screen
| Structure (SMILES) | inhibition |
| --- | --- |
| COc1cc(O)c2c(c1)C(=O)c1cc(C)cc(O)c1C2=O | 76.3% |
| CN(CCOc1ccc(-c2ccc3c(c2)OCO3)cc1C(C)(C)C)CC(=O)O | 109% |
| C/N=c1/nc(-c2ccccc2)n(-c2ccccc2)s1 | 99.8% |

Series 6
Target: POU, POU domain (Salpingoeca helianthica)
Method: Spec-seq
Molecule type: double-stranded DNA, one strand shown
Medium: in vitro
Tested at: not given
Setting: whole probe, mean of replicates
Baseline: not given
Direction: lower = stronger binding
Target sequence (chain): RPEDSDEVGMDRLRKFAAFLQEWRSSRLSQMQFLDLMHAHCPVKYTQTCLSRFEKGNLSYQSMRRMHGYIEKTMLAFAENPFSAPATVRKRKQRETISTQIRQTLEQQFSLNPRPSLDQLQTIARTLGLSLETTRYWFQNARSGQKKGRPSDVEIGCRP
| Sequence | relative binding energy [ln ratio] |
| --- | --- |
| GAGTCGTCTCGTCAGCACTCCATAATCCGTAGAGCACTCAGGTC | 0.575 |
| GAGTCGTCTCGTCAGCACGTTGTAATCCGTAGAGCACTCAGGTC | 0.138 |
| GAGTCGTCTCGTCAGCACATACGAATCCGTAGAGCACTCAGGTC | 1.06 |
| GAGTCGTCTCGTCAGCACATGCCGGCCCGTAGAGCACTCAGGTC | 1.36 |

Excerpt of the above (series 5):
| Structure (SMILES) | inhibition |
| --- | --- |
| COc1cc(O)c2c(c1)C(=O)c1cc(C)cc(O)c1C2=O | 76.3% |
| CN(CCOc1ccc(-c2ccc3c(c2)OCO3)cc1C(C)(C)C)CC(=O)O | 109% |
| C/N=c1/nc(-c2ccccc2)n(-c2ccccc2)s1 | 99.8% |
